# Experimental data pooled from the literature.
# Each numbered part is a random draw from the data of one study; scales do not carry over between parts. “And” joins repeats or separate records; there may be more than shown.

# Set 1
# Target: Fragile X messenger ribonucleoprotein 1, C-terminal low-complexity region (Fmr1, Mus musculus, UniProt P35922)
# Method: RNA Bind-n-Seq
# Form: RNA
# Sample: in vitro
# Tested at: 200 nM
# Setting: whole 134-nt RNA, ends assumed
# With: 150 mM KCl
# Relative to: input library
# Direction: higher = stronger binding
Strand,log2 enrichment
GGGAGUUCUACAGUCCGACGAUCUGGCUAGUCAGCAGCGGAUGUCCCCUCCAGGUUAAGAAAGCCGAACCAGAGCCGAUGCGAGAGGAGGAGAAAAUGAUUCCUCCUACGAAAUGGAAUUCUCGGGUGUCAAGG,-0.0532
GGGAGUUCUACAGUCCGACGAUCCAAGUCCUGUGCUACACAUCGUAUGUACCGAAUCGGGGUUUGGGGAGGGGAGGGGAAAGUAUUAUGUUACGCCGUUCGGAUCUGCACUUCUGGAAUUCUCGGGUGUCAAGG,1.12
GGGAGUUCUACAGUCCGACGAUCCCUCAAGUCCUGUGCUACACAUCGUAUGUACCGAAUCGGCGGCGGGGCGGGGAAAGUAUUAUGUUACGCCGUUCGGAUCUGCACUUCCAGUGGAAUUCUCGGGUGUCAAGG,0.454
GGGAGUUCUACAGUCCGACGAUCUUGCUAAUCUAUAAAUUUUUUUUAUAUGAAAUAGCUCAUAGUCGGAAGCCGGCACCCUCAAAUGAGCCCGAAUAUCUAUGUAAAUGGAUGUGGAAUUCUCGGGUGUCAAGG,-2.05
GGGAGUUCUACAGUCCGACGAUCUGGGAGGUGGAUUUUGUUUAUUUUUUUAGCUCAUUUCCAGGGGUGGGAAUUUGUUUUUAAUAUGUGUCAUGAAUAAAGUUGUUUUUGAAAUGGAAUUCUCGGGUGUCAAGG,0.12
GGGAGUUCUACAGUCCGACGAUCAAGUCCUGUGCUACACAUCGUAUGUACCGAAUCGGGGAAAGGGGAAAGGGGAGGGGAAAGUAUUAUGUUACGCCGUUCGGAUCUGCACUUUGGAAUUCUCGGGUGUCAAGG,0.38
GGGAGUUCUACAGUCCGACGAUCGCAGGAAGAAAAAACAAAUGGAAAUGCUUCGGAUAGUGGCAGGGGUGGGGGUUGCUAAGGAAAGGGUGGGAUGGGAGUGGGUAAAGAGUUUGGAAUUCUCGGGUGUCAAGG,0.194
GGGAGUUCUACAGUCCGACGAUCCACAGACAACACGCACCCACACAGACACAGAGGGAAGGGGUUGGGACGGGGACAGGGUGCACAGCAGGGCGGGGUAGGACCCCAGCCCCUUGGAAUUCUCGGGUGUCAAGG,1.24

# Set 2
# Target: RING finger protein unkempt homolog, zinc fingers 1-6, SBP tag (UNK, Homo sapiens, UniProt Q9C0B0, residues 30-357)
# Sequence of UniProt Q9C0B0 (30-357, looked up): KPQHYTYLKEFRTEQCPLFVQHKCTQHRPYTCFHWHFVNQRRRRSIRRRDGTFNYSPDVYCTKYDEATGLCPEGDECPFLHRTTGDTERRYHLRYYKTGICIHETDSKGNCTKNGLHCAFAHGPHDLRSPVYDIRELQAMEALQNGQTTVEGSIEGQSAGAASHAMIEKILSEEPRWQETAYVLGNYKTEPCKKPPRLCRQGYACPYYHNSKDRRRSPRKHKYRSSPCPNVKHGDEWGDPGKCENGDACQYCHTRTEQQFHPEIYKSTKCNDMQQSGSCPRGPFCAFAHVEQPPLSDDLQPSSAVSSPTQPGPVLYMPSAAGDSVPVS
# Method: RNA Bind-n-Seq
# Form: RNA
# Sample: in vitro
# Tested at: 100 nM
# Setting: RNA with constant flanks, vertebrate orthologous sites, ends assumed
# Relative to: input RNA pool
# Direction: higher = stronger binding
Strand,bound/input enrichment [ratio]
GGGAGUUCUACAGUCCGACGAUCCGGCAGAUUCGCUCAUAGGGAGAGCUGCACACAUUGCUGUUCUUGAUUCAGAAAUAUUUUUAGAAAAAUUCUUCCUUGUUGCUGCCCUCAAAUAUUUUCAGUAGAGAAAAGCAUUGUAAGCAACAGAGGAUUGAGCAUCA,0.501
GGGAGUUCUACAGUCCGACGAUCUGAAAGUUACAGACAAGAGUCUGAAAGUAGAAAUACAGGAUCCUGGUUAUCAUCAUCUCUACGAAACAGAUGUACACCUCUGUUCUCCAGAAGAAGGCGAGAAGGAAGAGAUGAAUCUGCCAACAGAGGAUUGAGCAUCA,0.223
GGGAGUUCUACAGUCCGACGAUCUGUAGUUUGUUUUUAAUUUCAAGCAAAAAUCUUAUUGUACUUGAAUGUGCCCUGUUUUGUUAGCACACCUAGACUUGCUGUAACUGUACUCAUGUCCCAGUAUGUACGUUCUUUCUAUGACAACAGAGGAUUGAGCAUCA,0.505
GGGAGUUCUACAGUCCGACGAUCUUCUAGUGCUUACGAGGAUGGUUCAGAAAUUCUGUUUACUUGCAUAUGUAAGUGUGUACAUAGUAAAUCUCAGAUUGUUGCUGGAGUUUUUCUUUCUGAGGGACGAGUUUGAAUCUUGUUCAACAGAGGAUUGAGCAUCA,0.437
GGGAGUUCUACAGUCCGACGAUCAAGUAUUUAUACUGGCCAAACAUUUUUUACUUAUUUUGUUCCCCCCCCCUUUUUUUUUGGUAGUUCUUGUUACCCACACCAUUUUAUGUCUCCUUCACUGAAGGGCUAGAGUUUUAAGUUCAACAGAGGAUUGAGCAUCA,0.902
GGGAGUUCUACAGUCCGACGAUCGUGUUUUGUACAGGGCAUUCUCUGUACUAGUUUGUUGUGGUUAUAAAACAAUUAGCAGAAUAGCCUACAUUUGUAUUUAUUUUCUAUUCCAUACUUCCGCCCACGUUGUUUUCUCUCAAACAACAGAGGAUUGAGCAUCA,1.06
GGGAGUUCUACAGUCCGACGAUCGAGCUAAAGGAGUUAGCAUCUUUAUUUUUGUAUCAAAGAUAAAGGUUAUUUUGAAAUUAUUAGGAUUUUUACACAAUUCUGAAAUCUGUUGCUUUUGUAAACAAAUUGUUUGAUCUUAAUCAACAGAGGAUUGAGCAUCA,1.05
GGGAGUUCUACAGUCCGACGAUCCCCAGUCUUCCACUUAAGGUCAGCCACAUUCUAUAGGAUUUAUGACAGCUAUAUUAUAUCUAGUUAAUAAUUUUUAUCACCUGUAACUAAUUACAUUAAAAUGAUAUUGAUCUGAUAAAACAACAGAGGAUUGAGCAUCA,1

# Set 3
# Target: TAR DNA-binding protein 43, full length, His tag (TARDBP, Homo sapiens, UniProt Q13148, residues 1-414)
# Method: RNA Bind-n-Seq
# Form: RNA
# Sample: in vitro
# Tested at: 20 nM
# Setting: 6-mer, flanks averaged, single round
# With: 150 mM LiCl
# Relative to: input library
# Direction: higher = stronger binding
Strand,6-mer enrichment (R)
GGCUGC,1.03
CGAGAC,0.886
UAAGAC,0.823
GUUACA,0.901
UAAGAG,1.02
GUGCGU,1.43
AGUCUG,0.905
CAACAA,0.927

# Single results of other studies
SMILES,cell line,test,system,conditions,scale,quantity,result
CC1=C(C#N)C(c2ccc3[nH]nc(C)c3c2)C(C#N)=C(C)N1,normal organoid sample F,CellTiter-Glo,"human, normal-adjacent epithelium",1 µM,relative to: DMSO,viability,106% and 118%
